Experimental data of several laboratories.
Compare with care: the assays were run in different laboratories. Numbers after ± are the reported error. In brackets after ≈: the same amount, converted by molar mass.

Protein sequences, listed by entry. Tags and fused reporters are not part of them. Residues count along the entry.
UniProt P35353, 24-415 limits assumed: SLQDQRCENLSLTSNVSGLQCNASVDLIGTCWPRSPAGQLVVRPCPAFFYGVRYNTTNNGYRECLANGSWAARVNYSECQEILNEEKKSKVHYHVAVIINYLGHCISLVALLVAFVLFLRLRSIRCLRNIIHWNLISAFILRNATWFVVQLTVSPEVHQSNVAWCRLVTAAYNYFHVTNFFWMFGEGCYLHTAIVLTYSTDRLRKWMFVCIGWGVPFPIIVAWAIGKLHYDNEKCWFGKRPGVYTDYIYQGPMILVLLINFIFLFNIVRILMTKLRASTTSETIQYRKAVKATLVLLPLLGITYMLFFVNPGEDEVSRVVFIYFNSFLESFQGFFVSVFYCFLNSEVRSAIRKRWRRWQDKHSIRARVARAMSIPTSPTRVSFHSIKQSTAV
UniProt P28566, whole entry: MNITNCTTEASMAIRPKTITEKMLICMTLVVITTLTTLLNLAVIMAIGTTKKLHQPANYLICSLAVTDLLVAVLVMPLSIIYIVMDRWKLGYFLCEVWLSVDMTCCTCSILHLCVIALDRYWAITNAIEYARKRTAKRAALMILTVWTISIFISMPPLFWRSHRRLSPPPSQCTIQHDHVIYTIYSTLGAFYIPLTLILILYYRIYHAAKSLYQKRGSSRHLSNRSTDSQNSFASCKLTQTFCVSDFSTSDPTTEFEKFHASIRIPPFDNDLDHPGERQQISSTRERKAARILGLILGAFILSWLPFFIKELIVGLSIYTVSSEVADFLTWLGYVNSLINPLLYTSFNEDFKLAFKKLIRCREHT

COCCN(CCOC)c1nc(C)nc2c(-c3c(OC)cc([76Br])cc3OC)c(C)nn12
uptake ratio (Corticotropin-releasing factor receptor 1 (Rattus norvegicus, UniProt P35353); ex vivo autoradiography; rat, awake, cerebellum; intravenous, 1 h; reference: choroid plexus): 176%

C=CC(=O)Nc1cc(-n2c(=O)ccc3cnc4ccc(-c5cn[nH]c5)cc4c32)ccc1C
GI50 (Hs 505.T; cell growth; 72 h): 1 µM

NC[C@@H](NC[C@@H]1CCCN1C[C@@H](CO)NC[C@@H](NCCC12CC3CC(CC(C3)C1)C2)c1ccccc1)c1ccccc1
potentiation of amikacin (Klebsiella pneumoniae; bacterial growth; 16 µM, fold shift of IC50, with: amikacin): 2.5 fold

CN(CC(=O)N(Cc1ccc(C2CCCCC2)cc1)c1ccc(C(=O)NO)cc1)S(=O)(=O)c1c(F)c(F)c(F)c(F)c1F
Cmax (CD-1 mouse, plasma; intraperitoneal, 20 mg/kg): 299 ± 74 ng/mL

COc1cccc2c(N3CCC(CCP(=O)(O)O)CC3)ncnc12
serum concentration (mouse, serum; intravenous, 10 mg/kg single dose, within 8 h): ≤ 0.01 µM

C1c2c(-c3nnn[nH]3)n[nH]c2[C@@H]2C[C@H]12 (relative stereo)
locomotion and anxiety (open field test; wild-type mouse; subcutaneous, 10 mg/kg): no effect

C[C@@H]1CN(C)CCN1c1nc(-c2ccc(F)cc2)cs1
half-life (mouse, brain; intraperitoneal, 10 mg/kg): 2.45 h

O=C(NC1CCN(c2ncnc3[nH]cnc23)CC1)c1cccc(NS(=O)(=O)c2ccc(F)cc2)c1
Tmax (mouse, plasma; oral, 70 mg/kg): 0.25 h

Cc1nc2c[nH]c(/C=C/C=C/c3ccc(N(C)C)cc3)cn-2c1=O
brain washout time (Balb/c mouse, brain; intravenous, dose not given): ≤ 60 min

COc1ccc2c3c([nH]c2c1)[C@H](CC(C)C)N1C(=O)[C@H](CC(=O)OCc2ccccc2)NC(=O)[C@@H]1C3
remaining compound (human liver microsomes; 20 µM, 60 min): 9 ± 2%

C[C@H](CS)C(=O)N[C@H](Cc1c[nH]c2ccccc12)C(=O)O
MIC of meropenem (Escherichia coli; IMP-1 producing; 25 µM, with: meropenem): 8 µg/mL

NCCNCCSc1ccccc1
pKa (spectrophotometry; pH 6.6): 6.24

COc1cc2c(cc1OC)C(=O)C(CC1CCN(Cc3cc(C=Cc4ccc(C=Cc5ccc(N(C)C)cc5)cc4)cc(OC)c3O)CC1)C2 (stereo not shown)
log D (octanol/PBS; 250 µM): 3 ± 0.1

CC(=O)N1CCC[C@@H]1C(=O)N[C@@H](C)C(=O)N[C@@H](Cc1ccccc1)B(O)O
solubility (nephelometry; phosphate buffer; pH 6.8): 100 µM (≈ 37.5 µg/mL)

COc1cccc(-c2cc(NC(=O)Nc3ccc(C(F)(F)F)cc3)ccc2OC)c1
solubility (water): 0.53 ± 0.06 µM (≈ 0.221 µg/mL)

CC(C)C[C@@H](NC(=O)[C@H](NC(=O)[C@H]1CCCN1)[C@H](C)O)C(=O)N[C@H](Cc1c[nH]cn1)C(=O)N[C@@H](C(=O)N[C@H](Cc1c[nH]cn1)C(=O)N[C@H](CC(N)=O)C(=O)N[C@H](CCCNC(=N)N)C(=O)N[C@H](CCCNC(=N)N)C(=O)N[C@H](CCCNC(=N)N)C(=O)N[C@H](CCCNC(=N)N)C(=O)N[C@H](CCCNC(=N)N)C(N)=O)[C@H](C)O
Tmax (healthy human, plasma; 1 160 mg daily, day 14, mean): 1.3 h

COc1ccc(CN[C@@H]2CO[C@H](C(c3ccccc3)c3ccccc3)C[C@H]2O)cc1
inhibition (HTR1E (Homo sapiens, UniProt P28566); radioligand binding; 10 µM, with: [3H]5-HT): 3.4%

O=C(NC1CCCCC1)Oc1ccc(O)c(-c2ccccc2)c1
Cmax (mouse, brain; intraperitoneal, 1 mg/kg, single dose): 466 ± 96 pmol/g

CCCSc1nc(N[C@@H]2C[C@H]2c2ccc(F)c(F)c2)c2nnn([C@@H]3C[C@H](O)[C@@H](O)[C@H]3O)c2n1
plasma concentration (female Wistar rat, plasma; oral, 180 mg/kg/day ticagrelor, 5 h, week 26, 2-year carcinogenicity study): 10 ± 4.4 µM

O=C(NCCNCCO)c1cc2c([nH]c3ccccc32)c(-c2cc(Cl)c(Cl)c(Cl)c2)n1
half-life (human liver microsomes): 1.49 h

[2H]C1(C(=O)Nc2ccc3cc(C(=O)O)ccc3c2)CCN(S(=O)(=O)c2ccc(C)cc2C)CC1
intrinsic clearance (human liver microsomes): 7.2 µL/min/mg

[11CH3]Nc1ccc(C(=O)C2CCN(C3Cc4ccccc4CC3O)CC2)cc1 (single isomer, unassigned)
radioactivity uptake (Sprague-Dawley rat, muscle; intravenous, dose not given, 5 min): 0.22 %ID/g

For quick reference, copied from above:
COc1ccc(CN[C@@H]2CO[C@H](C(c3ccccc3)c3ccccc3)C[C@H]2O)cc1
inhibition (HTR1E (Homo sapiens, UniProt P28566); radioligand binding; 10 µM, with: [3H]5-HT): 3.4%

C[C@H](CS)C(=O)N[C@H](Cc1c[nH]c2ccccc12)C(=O)O
MIC of meropenem (Escherichia coli; IMP-1 producing; 25 µM, with: meropenem): 8 µg/mL

[2H]C1(C(=O)Nc2ccc3cc(C(=O)O)ccc3c2)CCN(S(=O)(=O)c2ccc(C)cc2C)CC1
intrinsic clearance (human liver microsomes): 7.2 µL/min/mg
